Results from different studies.
Every numbered part comes from another study and shows a few of its results, in no order.
Chain of UniProt O75385 (whole entry, looked up): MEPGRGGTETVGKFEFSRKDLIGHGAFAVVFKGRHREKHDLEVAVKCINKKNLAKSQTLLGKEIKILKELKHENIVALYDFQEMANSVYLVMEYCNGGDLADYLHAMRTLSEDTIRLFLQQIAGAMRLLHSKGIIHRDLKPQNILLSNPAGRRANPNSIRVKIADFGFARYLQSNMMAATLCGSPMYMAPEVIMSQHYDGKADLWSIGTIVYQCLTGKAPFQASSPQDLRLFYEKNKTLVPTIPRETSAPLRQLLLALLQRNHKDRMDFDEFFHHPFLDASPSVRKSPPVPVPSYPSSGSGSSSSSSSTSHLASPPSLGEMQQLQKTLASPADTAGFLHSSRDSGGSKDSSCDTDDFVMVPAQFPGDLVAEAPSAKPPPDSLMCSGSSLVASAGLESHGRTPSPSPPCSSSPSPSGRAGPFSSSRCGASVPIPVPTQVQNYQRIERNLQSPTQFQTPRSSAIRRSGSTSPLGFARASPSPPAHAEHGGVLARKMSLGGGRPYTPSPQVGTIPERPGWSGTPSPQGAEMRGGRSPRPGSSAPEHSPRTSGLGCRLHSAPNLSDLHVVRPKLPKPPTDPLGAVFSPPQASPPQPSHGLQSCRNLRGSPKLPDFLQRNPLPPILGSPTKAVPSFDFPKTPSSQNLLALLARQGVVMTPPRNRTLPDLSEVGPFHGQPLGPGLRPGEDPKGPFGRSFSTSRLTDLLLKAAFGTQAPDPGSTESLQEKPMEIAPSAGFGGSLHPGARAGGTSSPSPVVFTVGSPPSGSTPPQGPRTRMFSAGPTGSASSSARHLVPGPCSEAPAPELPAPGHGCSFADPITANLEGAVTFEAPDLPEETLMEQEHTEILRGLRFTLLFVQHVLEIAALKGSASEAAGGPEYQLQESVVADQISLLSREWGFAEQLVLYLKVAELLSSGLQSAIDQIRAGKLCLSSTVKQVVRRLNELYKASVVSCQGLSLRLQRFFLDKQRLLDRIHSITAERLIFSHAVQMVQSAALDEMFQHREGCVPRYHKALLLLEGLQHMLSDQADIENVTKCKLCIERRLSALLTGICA
Chain of UniProt P37173 (whole entry, looked up): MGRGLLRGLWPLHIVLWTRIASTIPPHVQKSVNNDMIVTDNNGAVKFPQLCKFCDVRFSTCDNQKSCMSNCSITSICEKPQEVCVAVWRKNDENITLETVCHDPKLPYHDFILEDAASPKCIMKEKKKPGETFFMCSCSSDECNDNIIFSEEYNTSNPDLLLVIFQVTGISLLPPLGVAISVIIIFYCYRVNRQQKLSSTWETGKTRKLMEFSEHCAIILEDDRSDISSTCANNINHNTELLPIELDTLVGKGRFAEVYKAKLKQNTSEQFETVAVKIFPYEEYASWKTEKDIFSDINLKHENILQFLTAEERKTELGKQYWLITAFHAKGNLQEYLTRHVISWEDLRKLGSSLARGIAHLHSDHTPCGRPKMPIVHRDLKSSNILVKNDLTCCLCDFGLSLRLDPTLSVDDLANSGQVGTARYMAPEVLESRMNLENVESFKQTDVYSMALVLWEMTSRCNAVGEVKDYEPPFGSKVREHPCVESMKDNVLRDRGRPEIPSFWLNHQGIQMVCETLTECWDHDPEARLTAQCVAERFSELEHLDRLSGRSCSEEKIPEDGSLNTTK
Chain of UniProt P08631 (whole entry, looked up): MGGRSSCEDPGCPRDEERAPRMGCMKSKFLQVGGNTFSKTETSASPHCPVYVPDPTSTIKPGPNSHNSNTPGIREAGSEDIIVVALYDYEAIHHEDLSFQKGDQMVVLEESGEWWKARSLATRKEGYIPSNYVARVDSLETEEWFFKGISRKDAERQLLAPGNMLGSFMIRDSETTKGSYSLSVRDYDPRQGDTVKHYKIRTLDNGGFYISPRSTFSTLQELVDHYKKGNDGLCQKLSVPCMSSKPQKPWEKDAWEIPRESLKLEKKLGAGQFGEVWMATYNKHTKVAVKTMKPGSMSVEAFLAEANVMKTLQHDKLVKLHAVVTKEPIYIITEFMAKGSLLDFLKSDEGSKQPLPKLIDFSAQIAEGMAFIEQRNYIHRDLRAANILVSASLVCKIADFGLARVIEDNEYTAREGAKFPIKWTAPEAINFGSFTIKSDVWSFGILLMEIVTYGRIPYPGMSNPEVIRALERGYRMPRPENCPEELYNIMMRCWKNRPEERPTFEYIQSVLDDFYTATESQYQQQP
Chain of UniProt P21802 (whole entry, looked up): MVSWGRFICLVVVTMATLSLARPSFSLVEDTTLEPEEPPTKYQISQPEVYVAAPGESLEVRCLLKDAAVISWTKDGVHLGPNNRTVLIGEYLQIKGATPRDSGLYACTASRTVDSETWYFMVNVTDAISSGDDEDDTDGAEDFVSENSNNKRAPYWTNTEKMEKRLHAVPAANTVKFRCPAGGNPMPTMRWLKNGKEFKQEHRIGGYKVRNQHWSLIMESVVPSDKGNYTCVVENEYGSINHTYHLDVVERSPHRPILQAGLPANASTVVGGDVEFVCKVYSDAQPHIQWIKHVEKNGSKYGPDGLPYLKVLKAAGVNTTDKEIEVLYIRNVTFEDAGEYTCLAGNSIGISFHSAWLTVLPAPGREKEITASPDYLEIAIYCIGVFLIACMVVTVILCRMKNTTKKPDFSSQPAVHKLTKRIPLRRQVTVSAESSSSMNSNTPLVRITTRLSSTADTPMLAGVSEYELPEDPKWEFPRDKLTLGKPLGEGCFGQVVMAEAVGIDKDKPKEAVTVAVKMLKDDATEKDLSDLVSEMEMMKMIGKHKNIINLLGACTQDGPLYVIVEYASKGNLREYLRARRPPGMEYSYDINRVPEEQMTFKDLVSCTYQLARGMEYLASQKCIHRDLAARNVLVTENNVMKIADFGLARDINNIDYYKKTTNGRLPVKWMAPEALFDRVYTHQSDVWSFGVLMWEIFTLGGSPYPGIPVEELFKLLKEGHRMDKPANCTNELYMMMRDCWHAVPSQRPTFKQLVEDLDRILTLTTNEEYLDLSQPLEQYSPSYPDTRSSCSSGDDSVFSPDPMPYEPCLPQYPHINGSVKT
Chain of UniProt P14616 (whole entry, looked up): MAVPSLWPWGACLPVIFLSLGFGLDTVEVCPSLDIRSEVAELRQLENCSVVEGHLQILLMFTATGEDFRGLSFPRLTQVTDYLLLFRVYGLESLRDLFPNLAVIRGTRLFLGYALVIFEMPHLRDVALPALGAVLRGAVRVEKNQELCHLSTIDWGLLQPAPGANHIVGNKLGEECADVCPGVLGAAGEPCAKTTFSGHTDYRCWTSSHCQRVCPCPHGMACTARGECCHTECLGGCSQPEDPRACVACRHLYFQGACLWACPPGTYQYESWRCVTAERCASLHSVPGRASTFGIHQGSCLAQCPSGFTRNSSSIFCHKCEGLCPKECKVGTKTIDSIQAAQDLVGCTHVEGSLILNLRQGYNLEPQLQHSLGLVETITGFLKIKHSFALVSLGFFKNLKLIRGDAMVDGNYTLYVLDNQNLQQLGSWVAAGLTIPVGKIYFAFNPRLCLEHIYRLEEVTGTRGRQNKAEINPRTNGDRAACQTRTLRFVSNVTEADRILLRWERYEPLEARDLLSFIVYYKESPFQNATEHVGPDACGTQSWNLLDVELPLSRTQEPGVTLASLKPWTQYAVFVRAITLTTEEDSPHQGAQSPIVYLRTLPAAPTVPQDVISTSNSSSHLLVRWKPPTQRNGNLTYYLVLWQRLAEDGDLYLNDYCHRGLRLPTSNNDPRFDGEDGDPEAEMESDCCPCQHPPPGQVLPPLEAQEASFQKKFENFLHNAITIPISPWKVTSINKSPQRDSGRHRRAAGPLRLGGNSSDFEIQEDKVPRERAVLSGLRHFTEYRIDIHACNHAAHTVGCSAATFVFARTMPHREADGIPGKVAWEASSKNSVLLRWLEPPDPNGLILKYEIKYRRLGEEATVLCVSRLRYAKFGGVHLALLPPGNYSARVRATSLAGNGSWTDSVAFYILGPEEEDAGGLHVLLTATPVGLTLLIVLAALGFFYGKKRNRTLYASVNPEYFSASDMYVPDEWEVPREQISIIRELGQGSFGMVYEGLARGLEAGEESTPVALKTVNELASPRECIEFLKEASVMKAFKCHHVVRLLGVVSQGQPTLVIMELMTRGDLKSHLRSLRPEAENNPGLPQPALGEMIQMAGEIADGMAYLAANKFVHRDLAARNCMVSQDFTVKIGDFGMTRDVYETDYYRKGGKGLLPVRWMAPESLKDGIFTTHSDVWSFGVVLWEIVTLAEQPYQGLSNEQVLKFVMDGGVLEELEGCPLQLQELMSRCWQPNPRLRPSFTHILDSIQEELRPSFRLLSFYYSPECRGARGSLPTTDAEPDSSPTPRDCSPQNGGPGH
Chain of UniProt P04629 (whole entry, looked up): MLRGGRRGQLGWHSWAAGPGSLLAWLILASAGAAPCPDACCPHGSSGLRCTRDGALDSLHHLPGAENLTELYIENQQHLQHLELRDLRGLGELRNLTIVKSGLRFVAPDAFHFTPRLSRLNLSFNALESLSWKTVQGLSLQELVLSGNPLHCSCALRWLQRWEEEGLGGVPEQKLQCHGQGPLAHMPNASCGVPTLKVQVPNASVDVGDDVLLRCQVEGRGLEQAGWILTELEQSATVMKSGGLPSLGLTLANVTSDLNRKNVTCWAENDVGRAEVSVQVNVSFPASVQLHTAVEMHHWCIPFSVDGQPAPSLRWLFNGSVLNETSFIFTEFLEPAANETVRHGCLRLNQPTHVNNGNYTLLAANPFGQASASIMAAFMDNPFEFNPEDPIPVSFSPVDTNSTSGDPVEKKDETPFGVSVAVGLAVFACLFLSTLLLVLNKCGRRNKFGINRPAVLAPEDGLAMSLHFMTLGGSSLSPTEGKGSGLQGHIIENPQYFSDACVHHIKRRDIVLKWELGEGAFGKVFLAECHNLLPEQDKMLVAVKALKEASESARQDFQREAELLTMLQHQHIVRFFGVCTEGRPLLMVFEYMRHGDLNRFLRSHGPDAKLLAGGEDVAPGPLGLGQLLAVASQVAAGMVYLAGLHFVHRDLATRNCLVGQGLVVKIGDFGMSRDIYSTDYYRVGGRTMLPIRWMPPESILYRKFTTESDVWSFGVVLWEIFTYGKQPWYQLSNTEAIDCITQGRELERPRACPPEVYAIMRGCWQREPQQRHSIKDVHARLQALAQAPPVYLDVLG

Set 1
SMILES: c1ccc2c(-c3ccncc3)c[nH]c2c1
Read-out: enzyme activity
Mode: inhibitor
Concentration: 0.5 µM
Baseline: control
For INSRR (Homo sapiens, UniProt P14616): remaining activity read 101%.
The remaining activity was 83.3% (MAP3K9 (Homo sapiens, UniProt P80192)).
For PLK1 (Homo sapiens, UniProt P53350): remaining activity read 102%.
It gave 88.4% for remaining activity (TAOK1 (Homo sapiens, UniProt Q7L7X3)).
It gave 94.7% for remaining activity (ACVR1 (Homo sapiens, UniProt Q04771)).
ULK1 (Homo sapiens, UniProt O75385) — remaining activity: 83.8%.
VRK1 (Homo sapiens, UniProt Q99986) — remaining activity: 101%.
The remaining activity was 77.5% (DYRK2 (Homo sapiens, UniProt Q92630)).
The remaining activity was 92.8% (SGK3 (Homo sapiens, UniProt Q96BR1)).
For HCK (Homo sapiens, UniProt P08631): remaining activity read 99.5%.
It gave 107% for remaining activity (NTRK2 (Homo sapiens, UniProt Q16620)).
The remaining activity was 89.9% (RIPK2 (Homo sapiens, UniProt O43353)).
It gave 96.1% for remaining activity (TNK2 (Homo sapiens, UniProt Q07912)).
It gave 106% for remaining activity (MAP4K5 (Homo sapiens, UniProt Q9Y4K4)).
The remaining activity was 105% (FGFR2 (Homo sapiens, UniProt P21802)).
RAF1 (Homo sapiens, UniProt P04049) — remaining activity: 93.2%.
PHKG2 (Homo sapiens, UniProt P15735) — remaining activity: 101%.
The remaining activity was 90.7% (PRKD3 (Homo sapiens, UniProt O94806)).
For PDGFRB (Homo sapiens, UniProt P09619): remaining activity read 105%.

Set 2
SMILES: CCC(=O)N[C@H]1CC[C@@H](C(=O)N(C)c2ccc(-c3nc4ccccc4o3)cc2)C1
Concentration: 1 µM
It gave 100% for remaining binding (AAK1 (Homo sapiens, UniProt Q2M2I8); binding).
The remaining binding was 100% (FYN (Homo sapiens, UniProt P06241); cell-free assay, competition with immobilised ligand).
For Tyrosine-protein kinase JAK2, JH1 (JAK2, Homo sapiens, UniProt O60674); cell-free assay, competition with immobilised ligand: remaining binding read 70%.
For MAP3K14 (Homo sapiens, UniProt Q99558); cell-free assay, competition with immobilised ligand: remaining binding read 92%.
For LRRK2 (Homo sapiens, UniProt Q5S007); cell-free assay, competition with immobilised ligand: remaining binding read 71%.
The remaining binding was 63% (DYRK1A (Homo sapiens, UniProt Q13627); cell-free assay, competition with immobilised ligand).
FLT3 (Homo sapiens, UniProt P36888, F691L/ITD); cell-free assay, competition with immobilised ligand — remaining binding: 84%.
The remaining binding was 78% (ULK1 (Homo sapiens, UniProt O75385); cell-free assay, competition with immobilised ligand).
For LYN (Homo sapiens, UniProt P07948); cell-free assay, competition with immobilised ligand: remaining binding read 100%.
It gave 72% for remaining binding (Tyrosine-protein kinase ABL1, phosphorylated (ABL1, Homo sapiens, UniProt P00519); cell-free assay, competition with immobilised ligand).
The remaining binding was 89% (TGFBR2 (Homo sapiens, UniProt P37173); cell-free assay, competition with immobilised ligand).
It gave 100% for remaining binding (DCLK1 (Homo sapiens, UniProt O15075); cell-free assay, competition with immobilised ligand).
It gave 75% for remaining binding (NTRK1 (Homo sapiens, UniProt P04629); cell-free assay, competition with immobilised ligand).
EPHB6 (Homo sapiens, UniProt O15197); cell-free assay, competition with immobilised ligand — remaining binding: 100%.
It gave 79% for remaining binding (Cyclin-dependent kinase 4, with cyclin D1 (CDK4, Homo sapiens, UniProt P11802); cell-free assay, competition with immobilised ligand).

Set 3
Host: human
Sample: microsomes or S9
Concentration: 2 µM
Time: 0.5 h
`N#Cc1nccnc1OC1CCN(C(=O)c2ccc(N3CCOCC3)cc2)C1` (centres unmarked) has a remaining compound of 76.9%.
For `O=S(=O)(CCC1Cc2ccccc2C1)N1CCN(c2cccc(O)c2)CC1`, the remaining compound was 21.7%.
`O=C1Nc2ccccc2CCC1n1cnc2ccsc2c1=O` (centres unmarked) has a remaining compound of 82.5%.
For `COc1ncnc(N)c1CNCCC1=CCOCC1`, the remaining compound was 63.8%.
`Cc1ccc(CC2S/C(=N/N=C/c3ccncc3)N(Cc3ccco3)C2=O)cc1C` (centres unmarked) gave a remaining compound of 27.9%.
With `c1cc2ccn(-c3ccc4ccnc(N5CCOCC5)c4c3)c2cn1` the remaining compound was 0.723%.
`COc1cc(OC)cc(C2CC(=O)c3cc(OC)cc(OC)c32)c1` (centres unmarked) gave a remaining compound of 32.3%.
`Cn1c(=O)c2c(nc(C(=O)N3CC[C@H](NC(=O)OC(C)(C)C)C3)n2Cc2ccccc2)n(C)c1=O` gave a remaining compound of 6.67%.
`CC(C)NS(=O)(=O)c1ccc2c(c1)nc(-c1ccncc1)n2C(C)C` has a remaining compound of 17%.
`COc1ccc(C(=O)C2=CN(c3ccc(C#N)cc3)c3cc(F)ccc3S2(=O)=O)cc1` has a remaining compound of over 100%.
For `O=C1C(N2CCC3(CCOCC3)C2)CCN1c1cccc(Cl)c1` (centres unmarked), the remaining compound was 51.1%.
With `O=C(CN1C(=O)CCC1=O)N1CC(S(=O)(=O)C2CCCCC2)C1` the remaining compound was 65.4%.
`O=C(Nc1cccc2ccccc12)C1c2ccccc2Oc2ccccc21` gave a remaining compound of 66.1%.
`O=C(C1CC(=O)N(c2n[nH]c3ccccc23)C1)N1CCC(c2noc3cc(F)ccc23)CC1` (centres unmarked) gave a remaining compound of 71.1%.
`CC(C)Nc1nc(NCCO)nc(N2CCC(N3CCOC(C)C3)CC2)n1` (centres unmarked) has a remaining compound of 95.4%.
For `CC(C)(C)C1CCc2c(sc(NC(=O)Cc3ccccc3)c2C#N)C1` (centres unmarked), the remaining compound was 94.9%.
The remaining compound of `COC1CCN(c2ncnc3c2c(Br)cn3S(=O)(=O)c2ccc(C)cc2)CC1` is reported as 4.12%.
`CC(C)c1noc(-c2cccc(=O)n2CC(=O)N2CCN(c3ccc(F)cc3)CC2)n1` has a remaining compound of 6.41%.
With `COc1cc(=O)[nH]cc1C(=O)N1CCC(C)(C)C(c2ccccc2)C1` (centres unmarked) the remaining compound was 83.5%.

Set 4
Compound: CC(=O)N[C@@H](Cc1c[nH]c2ccccc12)C(=O)N[C@@H](CCC(=O)C=[N+]=[N-])C(=O)OC(C)C
Dose: dose not given
Baseline: vehicle
The “log2 fold change” was -1.23 (measured: N2,N2-dimethylguanosine; Mus musculus, EL4 tumour).
The “log2 fold change” was 1.18 (measured: carotene diol (1); Mus musculus, EL4 tumour).
It gave 0.32 for “log2 fold change” (measured: methyl glucopyranoside (alpha + beta); Mus musculus, EL4 tumour).
For measured: lysine; mouse, EL4 tumour-bearing, EL4 tumour: “log2 fold change” read 0.249.
The “log2 fold change” was -0.521 (metabolomics, measured: 5'-GMP; mouse, EL4 tumour).
It gave -0.0474 for “log2 fold change” (measured: alanine; mouse, EL4 tumour-bearing, EL4 tumour).
measured: N-alpha-acetylornithine; mouse, EL4 tumour-bearing, EL4 tumour — “log2 fold change”: -0.432.
It gave 0.397 for “log2 fold change” (measured: isoleucine; mouse, EL4 tumour-bearing, EL4 tumour).
For measured: hypoxanthine; mouse, EL4 tumour-bearing, EL4 tumour: “log2 fold change” read 0.121.
measured: phosphoenolpyruvate; mouse, EL4 tumour, tumour — “log2 fold change”: 0.761.
measured: N-acetylglutamate; mouse, EL4 tumour-bearing, EL4 tumour — “log2 fold change”: 1.24.
For measured: 6-phosphogluconate; mouse, EL4 tumour-bearing, EL4 tumour: “log2 fold change” read 1.03.

For quick reference, copied from above (set 3):
For `CC(C)(C)C1CCc2c(sc(NC(=O)Cc3ccccc3)c2C#N)C1` (centres unmarked), the remaining compound was 94.9%.
`N#Cc1nccnc1OC1CCN(C(=O)c2ccc(N3CCOCC3)cc2)C1` (centres unmarked) has a remaining compound of 76.9%.
With `COc1cc(=O)[nH]cc1C(=O)N1CCC(C)(C)C(c2ccccc2)C1` (centres unmarked) the remaining compound was 83.5%.
`O=C1Nc2ccccc2CCC1n1cnc2ccsc2c1=O` (centres unmarked) has a remaining compound of 82.5%.
`COc1ccc(C(=O)C2=CN(c3ccc(C#N)cc3)c3cc(F)ccc3S2(=O)=O)cc1` has a remaining compound of over 100%.
`O=C(Nc1cccc2ccccc12)C1c2ccccc2Oc2ccccc21` gave a remaining compound of 66.1%.
`COc1cc(OC)cc(C2CC(=O)c3cc(OC)cc(OC)c32)c1` (centres unmarked) gave a remaining compound of 32.3%.
